Assay results from different studies.
Every numbered part comes from another study and shows a few of its results, in no order.

Block 1 — method: Sort-seq; item: YFP reporter; matrix: E. coli; notes: PhoQ-PhoP variant library; together with: 10 µM Mg2+; baseline: high Mg2+ state; reading: higher = stronger signaling
Molecule: PhoQ, residues 284 288 289 292 302 303 NLCILV
It gave 3.78 for fold induction (PhoP, residues 12 14 15 18 19 TQCLL (Escherichia coli, UniProt P23836)).
The fold induction was 2.59 (PhoP, residues 12 14 15 18 19 ICWRQ (Escherichia coli, UniProt P23836)).
The fold induction was 15.2 (PhoP, residues 12 14 15 18 19 VHTVL (Escherichia coli, UniProt P23836)).

Block 2 — method: RNA Bind-n-Seq; form: RNA; matrix: in vitro; concentration: 365 nM; baseline: no-protein control; reading: higher = stronger binding
Target: RNA binding protein fox-1 homolog 2, RRM domain, GST-SBP tag (RBFOX2, Homo sapiens, UniProt O43251-10, residues 100-194)
Notes: natural RNA segment, single round, ends assumed
Shared flanks, not repeated: GGGAGUUCUACAGUCCGACGAUC … UGGAAUUCUCGGGUGCCAA
Residues (chain): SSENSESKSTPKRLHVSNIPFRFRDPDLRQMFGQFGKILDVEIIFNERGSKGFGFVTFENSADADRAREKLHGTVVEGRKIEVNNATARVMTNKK
`AAAGGUUCUGUUGGAGCUGAAUGUCAUGAUGUUUAUCAUCCAGCAAGCCCUCCUUCUCACAUAGCAACAGCAUCCACCUACAGAAGCAGCCCCUCAGUGUAGCCACUUCA` — result for “RBNS enrichment (R)”: 0.426.
For `GUGCAUGACUGUACUUUUCAUUAAAUAACAGAUAAGGGGCUAUAGAAUUUGGGGCUCUGACUGAUCAAAACCUGUGUAUCUGUGUCAAGUUUUAAGACCCCUGAAACAGC`, “RBNS enrichment (R)” read 2.87.
`UGGUGCUGGGGAAGGAGCCAGUUAGUGUUUCUGUGAGUUUGUGUUGUGAUGCAAUAAGAGAUAAGUAAUGCAGAGAGAAAUGAACCAUGGAAAGUAAGAACACUGAUGGU` — result for “RBNS enrichment (R)”: 1.19.
`GCAAAUAGAUCUGUUUCAAAAUAUGUUCCCGCUAUGUGGAUAACUCUUCUUUUUAAAAAGAAAAUAGAGAAUAGCAAAUCUUCAUGAUAAUCCUCAAAAGAACAAAAUGC` — result for “RBNS enrichment (R)”: 0.465.
Under “RBNS enrichment (R)”, `AAGUGUGUGCGCAUGCAUGAGUGCGCACACAAGUUUGAGUGUAUGAAUUCUUGUGCCCACACAUGCUGCCCUGCAUCCCUUCACUGCCUAUCCCCCUGCCCCCGCCUCAC` is recorded as 14.2.
`UGAGAUUUUAGAAUCUAAGAUAGCACGAGUGGGUAUAGAAGAUGGAAGAUACCGAUAAAUAACAUGGUUUAAGUGUCAAUAAAAUUCAUUCGAAGAGAUCAGGCGCGGUG` — result for “RBNS enrichment (R)”: 2.11.
For `AAAGGAGGGUGGUAGGUACCAAGAACCAGUGGAGGGGACCCUGAGCUGGCAAGAGUAAGCCCCAUCUCCUGCUCUGGCAAAGCCUGGCUCCUGGAGUACCUCACUCUGCC`, “RBNS enrichment (R)” read 0.45.
For `CCAAGUCUCUGCUGGUUACGGAGCUAUACGGUACUGCAGGAGUUCUACAUACCUGCUGCGCAGAGACCAGCCCCGUGGACAGAGCUGGCAUGAUGGUUGCUACAGUGCUC`, “RBNS enrichment (R)” read 4.4.
`AAACUAGCAAAUGAUGCAUGUAUUUUGUUUUUCAUGUACUGGGCAAUAUGAGUAAAAUCUGUCCCUUUUUCCCCCUUUGAAUGAGGUCUUCCAUGUUUGAGGGAAAGUCU`: “RBNS enrichment (R)” 7.39.
`AACAUAGUUUGUAAAGGCAUUCUAUAAGCUAUUUAUGUAAAAUCAAUAAAAGUUGAUCAUAAUUAAACUGUAUCAGUUGAGUAUUAUAGCAGCACAAAGUAUUCUUUGUA` — result for “RBNS enrichment (R)”: 1.07.
`GGUUAAAUGAGAUAGCAUUUUUAUAUCAGAGACACCAGAAUGUUGGUGGUCAACUACCUGUGCAAUAUUUAUGUCUUGAAAACCAGAUCUGAGUAUGCAUUGAACAGUGG`: “RBNS enrichment (R)” 1.02.
Under “RBNS enrichment (R)”, `ACACAAGGAGGAUCAGACUUUAAAACUAUCCAUGUGGAUUCUGAGAGCUGCUGCCCAGCAGAAGUCUUAGAAAUAUGCCUUGAAGCAGCCGUUGUGUAAUUAUGAGCUGG` is recorded as 0.339.

Block 3 — method: protein-binding microarray; form: double-stranded DNA, one strand shown; matrix: in vitro; concentration: not given; reading: higher = stronger binding
Target: Hepatocyte nuclear factor 3-beta, forkhead domain (FOXA2, Homo sapiens, UniProt Q9Y261, residues 142-269)
Notes: k-mer, scored over probes, only values ≥0.25
Target sequence (chain): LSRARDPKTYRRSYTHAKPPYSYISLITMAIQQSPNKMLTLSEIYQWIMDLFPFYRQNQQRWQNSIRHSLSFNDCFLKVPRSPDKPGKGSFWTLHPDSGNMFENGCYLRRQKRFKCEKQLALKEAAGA
The E-score of `TAATAATA` is reported as 0.275.
The E-score of `CTATATCA` is reported as 0.276.
`CTAACGTA` has an E-score of 0.303.
With `GAAATACA` the E-score was 0.261.
For `AATATTAA`, the E-score was 0.279.
With `ATCTTGCA` the E-score was 0.286.
`AAGATACA` gave an E-score of 0.332.
With `AATTAACA` the E-score was 0.328.

Block 4 — method: RNA Bind-n-Seq; form: RNA; matrix: in vitro; concentration: 200 nM; notes: whole 134-nt RNA, ends assumed; together with: 150 mM LiCl; baseline: input library; reading: higher = stronger binding; all molecules: 7-deaza-guanosine replaces G
Target: Ras GTPase-activating protein-binding protein 1, full length (G3BP1, Homo sapiens, UniProt Q13283)
UniProt Q13283, sequence (whole entry, looked up): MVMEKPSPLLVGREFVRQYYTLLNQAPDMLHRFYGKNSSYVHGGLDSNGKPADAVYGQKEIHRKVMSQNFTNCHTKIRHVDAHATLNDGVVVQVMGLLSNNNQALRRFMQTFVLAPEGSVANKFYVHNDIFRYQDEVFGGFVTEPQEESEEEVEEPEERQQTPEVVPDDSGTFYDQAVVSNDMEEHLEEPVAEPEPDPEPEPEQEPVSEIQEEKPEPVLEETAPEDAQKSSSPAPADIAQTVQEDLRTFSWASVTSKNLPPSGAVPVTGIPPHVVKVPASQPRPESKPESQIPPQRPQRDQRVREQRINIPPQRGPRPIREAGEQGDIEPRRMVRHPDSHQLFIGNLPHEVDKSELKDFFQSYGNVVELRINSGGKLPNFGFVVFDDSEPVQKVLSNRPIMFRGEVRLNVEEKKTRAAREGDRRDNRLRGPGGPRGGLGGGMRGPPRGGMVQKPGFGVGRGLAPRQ
Shared flanks, not repeated: GGGAGUUCUACAGUCCGACGAUC … UGGAAUUCUCGGGUGUCAAGG
`GUCCUGUGCUACACAUCGUAUGUACCGAAUCGGGAAAAAAAGGGUGGGUUUUUUUGGGAAAGUAUUAUGUUACGCCGUUCGGAUCUGCAC` has a log2 enrichment of -0.886.
`UGGCCCUGGUGGCAUGCGGGGAGGAAGAGGUGGCCUCAUGGAUCGUGGUGGUCCCGGUGGAAUGUUUAGAGGUGGCCGUGGUGGAGACAG` gave a log2 enrichment of 0.205.
The log2 enrichment of `UCCUGUGCUACACAUCGUAUGUACCGAAUCGGGGUUUGGGGAAAAAGGGGUUUUUGGGGAAAGUAUUAUGUUACGCCGUUCGGAUCUGCA` is reported as 0.0519.
`UUCCCAAGAUGGCGGCGGACGUGUCCGUUACUCACCGGCCCCCGCUGAGCCCUAAGUCUGGGGCCGAAGUCGAAGCCGGCGAUGCCGCGG` has a log2 enrichment of -3.14.
`CUGUGCUACACAUCGUAUGUACCGAAUCGGGGAAAGGGGUUUUUUUGGGGAAAAAAAGGGGAAAGUAUUAUGUUACGCCGUUCGGAUCUG` has a log2 enrichment of 0.312.
The log2 enrichment of `CUCAAGUCCUGUGCUACACAUCGUAUGUACCGAAUCGGUUGGUUGGGGUUGGGGAAAGUAUUAUGUUACGCCGUUCGGAUCUGCACUUCC` is reported as -0.694.
`GCAUAAUGGAUAUUUUUUAACUUGGCGAGAUGUGUCUCUCAAUCCUGUGGCUUUGGUGAGAGAGUGUGCAGAGAGCAAUGAUAGCAAAUA` gave a log2 enrichment of 0.781.
`ACCAUGCAGGUGGGCAUCUUUGGGAAGUGGGGCAAGGGGGGGAUAGGGAGGGGGGUAACACUUUGGGAACAGGUGGUCCCAAAACGUUUC` gave a log2 enrichment of 0.424.
For `UAACUUUAGAGGAGGAUCUGAUGGAUAUGGCAGUGGACGUGGAUUUGGGGAUCGCUAUAAUGGGUAUGGAGGAGGACCUGGAGGUGGCAA`, the log2 enrichment was -0.41.
With `CAAGUCCUGUGCUACACAUCGUAUGUACCGAAUCGGGGUUUGGGGAGGGGUGGGGAAAGUAUUAUGUUACGCCGUUCGGAUCUGCACUUC` the log2 enrichment was -0.0896.
`UCAAGUCCUGUGCUACACAUCGUAUGUACCGAAUCGGAAAGGAAAAAGGAAAGGAAAGUAUUAUGUUACGCCGUUCGGAUCUGCACUUCC` has a log2 enrichment of -0.265.

Some of these lines once more (block 3):
With `AATTAACA` the E-score was 0.328.
The E-score of `CTATATCA` is reported as 0.276.
